Measured values pooled from the literature.
Each numbered part is a random draw from the data of one study; scales do not carry over between parts.

Block 1 — method: RNA Bind-n-Seq; molecule type: RNA; medium: in vitro; tested at: 20 nM; notes: 6-mer, flanks averaged, single round; together with: 150 mM KCl; reference: input library; direction: higher = stronger binding
Target: TAR DNA-binding protein 43, full length, His tag (TARDBP, Homo sapiens, UniProt Q13148, residues 1-414)
For `AGUGCC`, “6-mer enrichment (R)” read 0.823.
`CAACCG` — result for “6-mer enrichment (R)”: 0.683.
`AAAAUC`: “6-mer enrichment (R)” 0.604.
For `AUAUCA`, “6-mer enrichment (R)” read 0.562.
`ACUCGC` — result for “6-mer enrichment (R)”: 0.604.
Under “6-mer enrichment (R)”, `CGUGAU` is recorded as 0.739.
Under “6-mer enrichment (R)”, `UACGUG` is recorded as 0.911.
`CGCAUG` — result for “6-mer enrichment (R)”: 0.938.
Under “6-mer enrichment (R)”, `UGGUAU` is recorded as 0.853.
`GUCGAC`: “6-mer enrichment (R)” 0.87.
For `AUCCGG`, “6-mer enrichment (R)” read 0.899.
`CACCGA` — result for “6-mer enrichment (R)”: 0.693.
Under “6-mer enrichment (R)”, `AGUCCC` is recorded as 0.625.
`AAACAG` — result for “6-mer enrichment (R)”: 0.696.
Under “6-mer enrichment (R)”, `UCAAAU` is recorded as 0.616.
Under “6-mer enrichment (R)”, `CAGAUC` is recorded as 0.614.

Block 2 — method: competition protein-binding microarray; molecule type: double-stranded DNA, one strand shown; medium: in vitro; tested at: 2 µM; together with: Cbf1 competitor, 0.05 µM; direction: higher = stronger binding
Target: Phosphate system positive regulatory protein PHO4, full length, GST-tagged (PHO4, Saccharomyces cerevisiae, UniProt P07270, residues 1-312)
Notes: whole 60-bp probe, lowest competitor level
Construct (chain): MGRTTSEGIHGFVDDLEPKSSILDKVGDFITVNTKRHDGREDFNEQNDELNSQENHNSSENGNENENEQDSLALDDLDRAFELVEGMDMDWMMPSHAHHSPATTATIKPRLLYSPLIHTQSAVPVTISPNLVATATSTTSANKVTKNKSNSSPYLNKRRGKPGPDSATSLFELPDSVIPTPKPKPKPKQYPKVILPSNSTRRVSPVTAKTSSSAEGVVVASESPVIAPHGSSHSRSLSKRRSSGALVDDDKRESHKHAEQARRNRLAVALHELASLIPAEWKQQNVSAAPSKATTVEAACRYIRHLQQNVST
For `TGCGCAACAACTTGCTGAGTGGGTGTATGTCTAGAAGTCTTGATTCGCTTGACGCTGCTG`, the fluorescence intensity was 4740 a.u.
`CTAACGAAGGTTTGGGATGTGGGTGACAAGCCAAGTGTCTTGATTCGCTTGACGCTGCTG` gave a fluorescence intensity of 4480 a.u.
With `AAATTACTAAGTTCCCACGTGTTTTACCCCGTATGAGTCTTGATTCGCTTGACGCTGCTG` the fluorescence intensity was 16200 a.u.
For `AAAGCGGTAATTTGGGACGTGGGTGCAGATATCTATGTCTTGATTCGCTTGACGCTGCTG`, the fluorescence intensity was 7710 a.u.
`CGGGGTTAAGTTTGTCTTGTGGGTGGCTTGCAGCAGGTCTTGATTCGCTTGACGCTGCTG` has a fluorescence intensity of 5270 a.u.
With `AAATTACTAAGTTGTTGCGTGGGTGACGCCGTATGAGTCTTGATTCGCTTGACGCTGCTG` the fluorescence intensity was 6600 a.u.
The fluorescence intensity of `ATAACCGCGCAATACCGCGTGCTGTATCGGCGTCCAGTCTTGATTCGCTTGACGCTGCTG` is reported as 11700 a.u.
For `GTCTTGTCTCATTGTAGGGTGGGTGTCCCCACTTCAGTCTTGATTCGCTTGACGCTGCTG`, the fluorescence intensity was 4260 a.u.
The fluorescence intensity of `AAACCTCTCTGCTTCTACCAAAGTCCTAAAATCTCCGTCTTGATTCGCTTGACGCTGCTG` is reported as 3100 a.u.
For `TGCGCAACAACTTGGGATGTGGGTGTATGTCTAGAAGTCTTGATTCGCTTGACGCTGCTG`, the fluorescence intensity was 5210 a.u.
For `GGGATGAAAGTTCTGCGTGTGTTGGTTACTTAGGTTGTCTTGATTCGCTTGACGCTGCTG`, the fluorescence intensity was 6870 a.u.
`CTTTCCCGATCTTGGCACGTGTTTTTAGCACATTTGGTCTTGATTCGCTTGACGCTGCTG` gave a fluorescence intensity of 16200 a.u.
With `TAATTAAGGCAATGCCAGGTGATAAAGTTAAGGTTCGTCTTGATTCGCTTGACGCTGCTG` the fluorescence intensity was 3820 a.u.
`TGTAGCGCCAACCAACACGTGCAAATTTCCATCATCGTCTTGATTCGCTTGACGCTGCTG` gave a fluorescence intensity of 16100 a.u.
With `CGCTGAGTACTTCCTCACCTGATCCAATCGATTGACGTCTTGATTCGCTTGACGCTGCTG` the fluorescence intensity was 4020 a.u.
The fluorescence intensity of `CGGCCCTTCTCACCCCCCGTGTTTCGCAAAGAACAAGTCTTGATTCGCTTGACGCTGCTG` is reported as 8980 a.u.
With `CATACCCAACCTTGTCACCCCACTTAAGATATTTGTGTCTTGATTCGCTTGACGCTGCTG` the fluorescence intensity was 4320 a.u.
`TGTGAATGGTGGGAGTGCATGACAACGAGGATTTTTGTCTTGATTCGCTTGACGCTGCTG` gave a fluorescence intensity of 7240 a.u.
`CTACATCGAGGTAAACGCGTGTCGGGGTGCAAGCATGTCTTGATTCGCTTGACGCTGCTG` gave a fluorescence intensity of 9970 a.u.

Block 3 — method: protein-binding microarray; molecule type: double-stranded DNA, one strand shown; medium: in vitro; tested at: 2200 nM top; notes: 60-bp whole probe; together with: salmon DNA 0.4 mg/ml; reference: random background probes; direction: higher = stronger binding; all sequences stand within: GCCTAGCAC … GTCTTGATTCGCTTGACGCTGCTG
Target: Interferon regulatory factor 7, full length, phosphomimetic (IRF7, Homo sapiens, UniProt Q92985, residues 1-503, S471D/S472D/S475D/S476D/S477D/S483D/S484D/S487D)
Construct (chain): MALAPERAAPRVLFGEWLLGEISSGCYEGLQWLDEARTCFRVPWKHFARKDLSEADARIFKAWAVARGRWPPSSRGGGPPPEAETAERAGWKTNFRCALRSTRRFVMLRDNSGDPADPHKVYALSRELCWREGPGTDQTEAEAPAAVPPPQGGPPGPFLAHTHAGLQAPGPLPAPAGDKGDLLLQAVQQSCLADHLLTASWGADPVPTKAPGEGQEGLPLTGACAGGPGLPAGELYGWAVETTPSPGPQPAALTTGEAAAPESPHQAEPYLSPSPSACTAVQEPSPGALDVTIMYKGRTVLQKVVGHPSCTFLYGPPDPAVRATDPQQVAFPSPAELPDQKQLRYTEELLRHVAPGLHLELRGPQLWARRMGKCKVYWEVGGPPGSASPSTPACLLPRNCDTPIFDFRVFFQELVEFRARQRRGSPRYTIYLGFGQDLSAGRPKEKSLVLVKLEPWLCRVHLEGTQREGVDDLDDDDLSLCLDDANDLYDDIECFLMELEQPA
`TTGGGTATCGACTTTCGGTTAGTGCTA`: “fitted relative affinity” 6.04 z-score.
Under “fitted relative affinity”, `TCACAAGTCTTGTTTTACACTGTGCTA` is recorded as 1.06 z-score.
`TCACTTTTTTTTTTCCCACTGTGCTAG`: “fitted relative affinity” 3.25 z-score.
`TTAGATCTCAGTTTCGATCAGTGCTAG`: “fitted relative affinity” 3.41 z-score.
`GACAAACTGAGTATCGAGACGTGCTAG` — result for “fitted relative affinity”: -0.253 z-score.
Under “fitted relative affinity”, `TTAGGTTTCGGTATCGGTCAGTGCTAG` is recorded as 7.61 z-score.
`TTAGGTATCCCTATCCTTTAGTGCTAG`: “fitted relative affinity” 1.03 z-score.
For `TTTTGTTGTTTTTTGGTTTCGTGCTAG`, “fitted relative affinity” read 3.66 z-score.
`TACGGTTTCGGTCTCGGGACGTGCTAG`: “fitted relative affinity” 6.7 z-score.
For `TACGGTCTCCTACTGCTGACGTGCTAG`, “fitted relative affinity” read 0.945 z-score.
`TTAGGTTTCGACACTAGGTTAGTGCTA`: “fitted relative affinity” 1.83 z-score.
`TTAGATATCAGTTTCAATTAGTGCTAG` — result for “fitted relative affinity”: 0.91 z-score.
Under “fitted relative affinity”, `GACGGACTAGGTATCGGGACGTGCTAG` is recorded as -0.575 z-score.
For `TCACATATTCTCTTCTTACTGTGCTAG`, “fitted relative affinity” read 1.95 z-score.
`GACGATTTCAGTTCCGAGACGTGCTAG` — result for “fitted relative affinity”: 1.81 z-score.
For `TTAGGAGTGCTTATCCTTTAGTGCTAG`, “fitted relative affinity” read -0.0374 z-score.

Block 4 — method: RNA Bind-n-Seq; molecule type: RNA; medium: in vitro; tested at: 1 µM; notes: whole 134-nt RNA, ends assumed; together with: 150 mM KCl; reference: input library; direction: higher = stronger binding
Target: Ras GTPase-activating protein-binding protein 1, C-terminal RGG region (G3BP1, Homo sapiens, UniProt Q13283)
UniProt Q13283, sequence (whole entry, looked up): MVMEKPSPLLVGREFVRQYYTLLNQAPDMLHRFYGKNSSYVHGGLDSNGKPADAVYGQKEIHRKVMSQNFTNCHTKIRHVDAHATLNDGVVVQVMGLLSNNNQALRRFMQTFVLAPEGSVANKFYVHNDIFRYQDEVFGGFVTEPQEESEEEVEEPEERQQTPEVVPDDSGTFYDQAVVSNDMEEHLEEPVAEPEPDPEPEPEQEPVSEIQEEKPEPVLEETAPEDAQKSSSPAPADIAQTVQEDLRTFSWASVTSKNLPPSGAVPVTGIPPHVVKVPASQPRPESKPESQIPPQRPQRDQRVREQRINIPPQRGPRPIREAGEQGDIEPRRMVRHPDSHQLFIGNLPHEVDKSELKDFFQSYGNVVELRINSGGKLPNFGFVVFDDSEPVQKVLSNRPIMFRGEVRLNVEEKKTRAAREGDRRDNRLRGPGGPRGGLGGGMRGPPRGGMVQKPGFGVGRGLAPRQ
With `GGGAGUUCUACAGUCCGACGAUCGUCCUGUGCUACACAUCGUAUGUACCGAAUCGGGUUUUUGGGUUUUUGGUUUUUGGGGAAAGUAUUAUGUUACGCCGUUCGGAUCUGCACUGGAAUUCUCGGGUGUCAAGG` the log2 enrichment was -0.872.
With `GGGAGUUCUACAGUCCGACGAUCCCUGUGCUACACAUCGUAUGUACCGAAUCGGGGUUUUUUUGGUUUUUUUGGGUUUUUUUGGAAAGUAUUAUGUUACGCCGUUCGGAUCUGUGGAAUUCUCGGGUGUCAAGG` the log2 enrichment was -1.34.
With `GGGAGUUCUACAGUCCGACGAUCCUGUGCUACACAUCGUAUGUACCGAAUCGGAAAAAAAGGGGAAAAAAAGGGAAAAAAAGGGGAAAGUAUUAUGUUACGCCGUUCGGAUCUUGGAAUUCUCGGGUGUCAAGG` the log2 enrichment was -1.29.
With `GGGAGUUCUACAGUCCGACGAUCCUGUGCUACACAUCGUAUGUACCGAAUCGGGCCCCCCCGGCCCCCCCGGGCCCCCCCGGGGAAAGUAUUAUGUUACGCCGUUCGGAUCUGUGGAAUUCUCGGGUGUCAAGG` the log2 enrichment was -2.03.
The log2 enrichment of `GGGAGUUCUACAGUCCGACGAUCCACAGACAACACGCACCCACACAGACACAGAGGGAAGGGGUUGGGAUGGGGACAGGGUGCACAGCAGGGCGGGGUAGGACCCCAAACCCUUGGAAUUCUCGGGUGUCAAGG` is reported as -0.289.
`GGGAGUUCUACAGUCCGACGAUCCCUGUGCUACACAUCGUAUGUACCGAAUCGGGGUUUGGGGAAAAAGGGGAAAAAAAGGGGAAAGUAUUAUGUUACGCCGUUCGGAUCUGCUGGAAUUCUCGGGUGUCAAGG` gave a log2 enrichment of 0.656.
`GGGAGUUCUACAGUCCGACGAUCUGGGUGGUGGAUUUUGUUUAUUUUUUUAGCUCAUUUCCAGGGGUGGGAAUUUUUUUUUAAUAUGUGUCAUGAAUAAAGUUGUUUUUGAAAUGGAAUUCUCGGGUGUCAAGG` gave a log2 enrichment of 3.04.
With `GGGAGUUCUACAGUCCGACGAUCAGUCCUGUGCUACACAUCGUAUGUACCGAAUCGGAAAAAAAGGUUUGGAAAAAAAGGAAAGUAUUAUGUUACGCCGUUCGGAUCUGCACUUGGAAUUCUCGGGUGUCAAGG` the log2 enrichment was -2.14.
For `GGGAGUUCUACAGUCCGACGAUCGUGAAUCAAAAACUCUGGUUUUAAGCAACCUCUCCUACAGUGCAACAGAAGAAACUCUUCAGGAAGUAUUUGAGAAAGCAACUUUUAUCAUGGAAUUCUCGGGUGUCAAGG`, the log2 enrichment was 0.193.

Block 5 — method: protein binding microarray; molecule type: double-stranded DNA, one strand shown; medium: in vitro; tested at: not given; reference: not given; direction: higher = stronger binding
Target: Histone acetyltransferase KAT6A, winged helix 2, GST fusion (KAT6A, Homo sapiens, UniProt Q92794, residues 85-181)
Notes: 8-mer, flanks averaged, mean of 2 arrays, mostly near background
Construct (chain): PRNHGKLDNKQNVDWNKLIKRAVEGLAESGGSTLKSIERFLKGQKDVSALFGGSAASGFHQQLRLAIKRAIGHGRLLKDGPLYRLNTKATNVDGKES
For `CCTAAGAA`, the E-score was 0.063.
With `AAGAGCAG` the E-score was -0.0498.
With `TGCATCAA` the E-score was 0.0965.
With `ACCCACGA` the E-score was 0.103.
For `ACTAAATG`, the E-score was -0.0332.
The E-score of `CGAGTCAC` is reported as -0.0433.
With `CTACGATC` the E-score was -0.0417.
The E-score of `AATTTAGT` is reported as 0.0289.
`ATAGACGG` has an E-score of 0.0607.
The E-score of `GTCCCAGA` is reported as -0.00613.
The E-score of `AAGGTGCC` is reported as -0.00763.
`AGAGAGAA` has an E-score of 0.0733.
With `GCAGCCGA` the E-score was 0.0892.
For `ATATTGCG`, the E-score was -0.0615.
The E-score of `AAGCATTA` is reported as -0.0678.
`AATCTGCG` has an E-score of -0.0486.
For `GCGCCGAA`, the E-score was 0.152.
The E-score of `CCGCCGGC` is reported as 0.327.
With `ATCCCTAC` the E-score was -0.0326.
For `GGTCATAA`, the E-score was 0.0503.
For `GTCTGCAA`, the E-score was -0.0333.
For `GGATCAGA`, the E-score was -0.0649.
With `ATAGCAAG` the E-score was 0.0245.

For quick reference, copied from above (block 5):
The E-score of `CCGCCGGC` is reported as 0.327.
For `GTCTGCAA`, the E-score was -0.0333.
With `ATAGCAAG` the E-score was 0.0245.
With `ATCCCTAC` the E-score was -0.0326.
For `ACTAAATG`, the E-score was -0.0332.
`AATCTGCG` has an E-score of -0.0486.
With `GCAGCCGA` the E-score was 0.0892.
`AGAGAGAA` has an E-score of 0.0733.
